Results gathered from unrelated publications.
Numbered parts are unrelated; each lists some results of a single study.

Set 1
Target: RNA binding protein fox-1 homolog 2, RRM domain, GST-SBP tag (RBFOX2, Homo sapiens, UniProt O43251-10, residues 100-194)
Method: RNA Bind-n-Seq
Molecule type: RNA
Medium: in vitro
Tested at: 365 nM
Notes: natural RNA segment, single round, ends assumed
Baseline: no-protein control
Reading: higher = stronger binding
Shared flanks, not repeated: GGGAGUUCUACAGUCCGACGAUC … UGGAAUUCUCGGGUGCCAA
Residues (chain): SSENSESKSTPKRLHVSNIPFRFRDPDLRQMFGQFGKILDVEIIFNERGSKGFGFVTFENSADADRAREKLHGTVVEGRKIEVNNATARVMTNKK
| Strand | RBNS enrichment (R) |
| --- | --- |
| UCUUCUGUUAAGAGUGACUGUUCAUUCAGGGAGCUGAGAAUUCUGGCACAGAUCUUUGUCCCAAGCCUUCCUACUAUUCUUGCCUUAUUCUUAGUAUGCGUUGCAUCGGG | 0.607 |
| CUGCGUAUCUUUGACUUAAUUGGCACAUGACUUUUUCAAGCAGCCAUUCAUUCAGAGGUUUGUUUUCUCUCAGUCCUUUUGCUACAUUCACUUUCUUUUCAAAGAAAUGU | 0.459 |
| AAAGACCUGGAGGACCUUUCCCCUAGGCACCUACACUCCUCCAUUGUCUGUCUAUGUUGUGCCUUAGUGCCUGCACUGCCCCUACCCUUCUGCUGCCUGACCUCUGCAUG | 6.63 |
| CCAUGUAACAGAAAUUACUGCCUGAAAUGUUGGCAUUCAUAGUAAUUACGGAUGUAAUUCUGUGUAUCUUGCUGUGACUCCGAAGACUGUAGUACUGGUGUCAUGGAAAU | 0.876 |
| UAGAGGUGGGCUCAGAAUUCUAGUGCUAGGUAACACCCUAGGACACACCACAGCCCUAACACACCAGUUAUUCUCAGAGAAGCACUGCUCUGGAAGUUUGGCUACCUCUA | 0.582 |
| CCACGUGGGCCGCUGAACUGUGUCCAGCUGUGGCAGCAAAGGGAGCGGUCUCCAUUUCCCAGGCUCCUCUGGGGUCUCUGCCUCUGGCCGUGUGUCAAGGAGAUGCCCAC | 0.189 |

Set 2
Target: Centromere-binding protein 1, full length, His-tagged (CBF1, Saccharomyces cerevisiae, UniProt P17106, residues 1-351)
UniProt P17106, sequence (whole entry, looked up): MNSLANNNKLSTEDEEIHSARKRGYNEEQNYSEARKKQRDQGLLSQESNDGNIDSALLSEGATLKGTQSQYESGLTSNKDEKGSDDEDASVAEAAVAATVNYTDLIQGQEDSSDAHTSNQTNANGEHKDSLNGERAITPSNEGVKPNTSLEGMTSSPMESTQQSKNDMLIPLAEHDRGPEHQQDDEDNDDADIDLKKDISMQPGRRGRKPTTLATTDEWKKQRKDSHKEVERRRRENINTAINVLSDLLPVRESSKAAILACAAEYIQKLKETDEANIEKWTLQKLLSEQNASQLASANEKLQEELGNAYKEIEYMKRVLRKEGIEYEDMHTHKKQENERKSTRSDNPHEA
Method: competition protein-binding microarray
Molecule type: double-stranded DNA, one strand shown
Medium: in vitro
Tested at: 2 µM
Notes: whole 60-bp probe, lowest competitor level
Added: Pho4 competitor, 0.05 µM
Reading: higher = stronger binding
Shared flanks, not repeated: … GTCTTGATTCGCTTGACGCTGCTG
| Strand | fluorescence intensity [a.u.] |
| --- | --- |
| CTTCTGTAAATTTGTGATGTGGGTGGACGCGCCCCG | 68.4 |
| CCCGCGACTCTAAAGCACGGGATTGAAGTCAGCTTC | 279 |
| CTTCTGTAAATTTTTCACGTGAAGTGAAGCGCCCCG | 604 |
| TTGGCCGATTAAGAACCCGTGAGAACCACCAGAGAA | 116 |
| GGATACCTCCGCCGTCATATGATAATAATGTTCGTT | 135 |
| TATTTATGTTTAATCCACGTTACACCACCAATTATA | 105 |
| AAAGCGGTAATTTTTCACGTGGAATCAAATATCTAT | 933 |
| CGGCGCTAAACTCTTCACGTGAGGAGTTCACTAGAG | 1440 |

Set 3
Target: Interferon regulatory factor 7, full length, phosphomimetic (IRF7, Homo sapiens, UniProt Q92985, residues 1-503, S101K/S471D/S472D/S475D/S476D/S477D/S483D/S484D/S487D)
UniProt Q92985, sequence (whole entry, unmodified, looked up): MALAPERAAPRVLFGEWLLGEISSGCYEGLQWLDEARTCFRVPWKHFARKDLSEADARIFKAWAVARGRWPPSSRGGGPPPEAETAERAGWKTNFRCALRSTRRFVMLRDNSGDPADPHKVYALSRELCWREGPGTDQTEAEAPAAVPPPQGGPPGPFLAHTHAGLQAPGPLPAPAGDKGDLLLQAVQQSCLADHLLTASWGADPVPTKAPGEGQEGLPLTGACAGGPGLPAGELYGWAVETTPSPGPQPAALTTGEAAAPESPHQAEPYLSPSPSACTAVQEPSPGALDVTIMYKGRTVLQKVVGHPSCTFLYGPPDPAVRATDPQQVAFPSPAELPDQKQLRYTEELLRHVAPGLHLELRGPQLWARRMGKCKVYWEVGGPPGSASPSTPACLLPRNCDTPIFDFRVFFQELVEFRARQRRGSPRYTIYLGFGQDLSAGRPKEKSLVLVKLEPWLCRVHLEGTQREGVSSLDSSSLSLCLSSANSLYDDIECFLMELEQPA
Method: protein-binding microarray
Molecule type: double-stranded DNA, one strand shown
Medium: in vitro
Tested at: 250 nM
Notes: 60-bp whole probe
Added: salmon DNA 0.4 mg/ml
Baseline: random background probes
Reading: higher = stronger binding
Shared flanks, not repeated: GCCTAGCAC … GTGCTAGGTCTTGATTCGCTTGACGCTGCTG
| Strand | log fluorescence |
| --- | --- |
| TTAGAACTGGGTATCGATTA | 0.608 z-score |
| TTCCTTCTTGAACTCTTTAC | 1.7 z-score |
| GACTATATCAGACTGGAGAC | 0.0614 z-score |
| ATGTTTTTCATTGTTTTTCA | 1.59 z-score |
| TAAGATTTCAGTTCCGATTA | 2.29 z-score |
| GAGAGAGCTTGTCTGCAGCC | -1.28 z-score |

Mixed results
| Molecule | target | test | system | conditions | scale | measurement | result |
| --- | --- | --- | --- | --- | --- | --- | --- |
| PhoQ, residues 284 288 289 292 302 303 AGGCYF | PhoP, residues 12 14 15 18 19 STHWV (Escherichia coli, UniProt P23836) | Sort-seq, measured: YFP reporter | E. coli | PhoQ-PhoP variant library, added: 10 µM Mg2+ | baseline: high Mg2+ state, higher = stronger signaling | fold induction | 23.2 |

Excerpt of the above (set 1):
| Strand | RBNS enrichment (R) |
| --- | --- |
| UAGAGGUGGGCUCAGAAUUCUAGUGCUAGGUAACACCCUAGGACACACCACAGCCCUAACACACCAGUUAUUCUCAGAGAAGCACUGCUCUGGAAGUUUGGCUACCUCUA | 0.582 |
| CCACGUGGGCCGCUGAACUGUGUCCAGCUGUGGCAGCAAAGGGAGCGGUCUCCAUUUCCCAGGCUCCUCUGGGGUCUCUGCCUCUGGCCGUGUGUCAAGGAGAUGCCCAC | 0.189 |
